Measured values of several laboratories.
Each numbered part is a random draw from the data of one study; scales do not carry over between parts.

Study 1 — technique: universal PBM; molecule type: double-stranded DNA, one strand shown; medium: in vitro; concentration: 600 nM; reading: higher = stronger binding
Target: Sal-like protein 4, full length isoform A (SALL4, Homo sapiens, UniProt Q9UJQ4, residues 1-1053)
Chain of UniProt Q9UJQ4 (whole entry, looked up): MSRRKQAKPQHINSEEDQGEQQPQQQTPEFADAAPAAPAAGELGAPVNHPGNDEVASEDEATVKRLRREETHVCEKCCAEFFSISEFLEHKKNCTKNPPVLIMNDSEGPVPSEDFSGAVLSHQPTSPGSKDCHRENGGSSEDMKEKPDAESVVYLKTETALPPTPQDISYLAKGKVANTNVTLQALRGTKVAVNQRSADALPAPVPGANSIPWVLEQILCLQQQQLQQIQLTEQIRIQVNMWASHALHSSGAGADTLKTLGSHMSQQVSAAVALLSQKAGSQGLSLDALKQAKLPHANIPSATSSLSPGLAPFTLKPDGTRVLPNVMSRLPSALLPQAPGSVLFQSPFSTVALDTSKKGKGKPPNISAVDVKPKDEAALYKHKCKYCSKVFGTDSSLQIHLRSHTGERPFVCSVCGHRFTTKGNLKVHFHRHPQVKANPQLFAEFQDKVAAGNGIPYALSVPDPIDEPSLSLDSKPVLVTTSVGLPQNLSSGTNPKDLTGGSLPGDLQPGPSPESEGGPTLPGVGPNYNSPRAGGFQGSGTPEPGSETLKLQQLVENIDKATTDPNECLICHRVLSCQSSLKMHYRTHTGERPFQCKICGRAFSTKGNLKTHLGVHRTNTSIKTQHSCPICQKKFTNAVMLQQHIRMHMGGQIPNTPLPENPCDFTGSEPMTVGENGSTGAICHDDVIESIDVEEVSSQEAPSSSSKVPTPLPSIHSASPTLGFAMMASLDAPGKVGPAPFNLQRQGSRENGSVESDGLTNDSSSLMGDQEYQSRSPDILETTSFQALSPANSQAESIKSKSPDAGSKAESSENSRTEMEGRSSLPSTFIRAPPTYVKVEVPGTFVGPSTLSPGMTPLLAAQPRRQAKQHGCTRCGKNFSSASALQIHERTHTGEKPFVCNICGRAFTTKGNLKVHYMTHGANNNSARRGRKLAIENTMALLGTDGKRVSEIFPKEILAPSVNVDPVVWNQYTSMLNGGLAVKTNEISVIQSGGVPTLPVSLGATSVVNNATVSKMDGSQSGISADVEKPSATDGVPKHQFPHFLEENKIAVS
Notes: 8-mer, flanks averaged, mean of replicates
Strand	E-score
AATGGAAT	0.216
GCTTGAAC	0.116
ATCACAGC	0.055
ACTCCCAA	0.0511
GGCGCAAA	-0.157
TGAAACAA	0.262
ACGTCTGA	0.0344
AATAGTTC	0.291

Study 2 — technique: protein binding microarray; molecule type: double-stranded DNA, one strand shown; medium: in vitro; concentration: not given; reference: not given; reading: higher = stronger binding
Target: Histone acetyltransferase KAT6A, winged helix 1, GST fusion (KAT6A, Homo sapiens, UniProt Q92794, residues 1-85)
Notes: 8-mer, flanks averaged, mean of 2 arrays, mostly near background
Residues (chain): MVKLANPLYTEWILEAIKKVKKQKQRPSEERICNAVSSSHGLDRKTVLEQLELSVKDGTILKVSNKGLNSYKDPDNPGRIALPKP
Strand	E-score
GATGAGGA	-0.193
CTCCCCTC	-0.125
CTCAACTA	-0.122
CTACCAGA	-0.199
CAGTAGAC	0.03
AGACTTAT	-0.21
CATCGATA	-0.0429
AAGGTAAG	-0.00209
CGGGATGC	0.282

Study 3 — technique: Sort-seq; item: YFP reporter; medium: E. coli; notes: PhoQ-PhoP variant library; added: 10 µM Mg2+; reference: high Mg2+ state; reading: higher = stronger signaling
Substance: PhoQ, residues 284 288 289 292 302 303 NLCILV
target	fold induction
PhoP, residues 12 14 15 18 19 TQALL (Escherichia coli, UniProt P23836)	13.5
PhoP, residues 12 14 15 18 19 QYFSL (Escherichia coli, UniProt P23836)	4.33
PhoP, residues 12 14 15 18 19 NYFRM (Escherichia coli, UniProt P23836)	14.4

Study 4 — technique: RNA Bind-n-Seq; molecule type: RNA; medium: in vitro; concentration: not given; reference: input RNA pool; reading: higher = stronger binding
Target: RING finger protein unkempt homolog, zinc fingers 1-6, GST-SBP tag (UNK, Homo sapiens, UniProt Q9C0B0, residues 30-357)
Notes: RNA with constant flanks, human-mouse chimeric sites, ends assumed
Shared flanks, not repeated: GGGAGUUCUACAGUCCGACGAUC … CAACAGAGGAUUGAGCAUCA
Residues (chain): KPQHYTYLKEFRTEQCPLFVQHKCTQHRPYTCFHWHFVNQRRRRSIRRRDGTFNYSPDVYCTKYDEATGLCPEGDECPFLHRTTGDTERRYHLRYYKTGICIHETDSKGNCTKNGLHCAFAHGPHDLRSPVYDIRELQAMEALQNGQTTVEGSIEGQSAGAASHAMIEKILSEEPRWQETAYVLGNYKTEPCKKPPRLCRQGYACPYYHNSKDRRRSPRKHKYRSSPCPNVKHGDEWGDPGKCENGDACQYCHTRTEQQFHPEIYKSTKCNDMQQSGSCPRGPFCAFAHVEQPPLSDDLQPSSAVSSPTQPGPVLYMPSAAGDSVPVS
Strand	bound/input enrichment [ratio]
ACCAUUUCUGAAUACACGGCUUUGUGUGUAGUUCACUUACGGUAUUAAAUUAUUAUUCUGCUUAGCUUAUAAUAAGGAUAAUUGCAUUUAAAGAGGUGAUCACUGAAUACUCUGAAACUU	0.639
GCCACCAGAUCCCAGAAACAUGACUCUUGCUGCCUACAAAGAGAAGAUGAAGGAGCUCCCGCUGGUGUCCUUGUUCUGCUCCUGCUUCCUGGCCGAUCCCCUGAAUAAAUCAUCCUACAA	0.372
UGACAAGGGCACUGCAGAGCCAUGCCUUUCCUUGACAUACAGAAAAAGCUGGGCAUCAGCCUGGACCGGCACUUUAUGUUCCUAAGCGGUGAACAGCCCUACAAGAUCGCCGCUCGGUGC	0.0757
AACUUCGUGCAUCGGUUUCCCUUUGUAGCUGUUUCAAUUGGCUUCCUUGUGAAUAAAGAGAUGGAGUUUGGAGUUGUGUACAGCUGUGUGGAAGAUAAGAUGUACACCGGCAGGAAAGGG	0.422
AAAGAACCUCUCUCUGAAGAAGAGGAAGAAGACAAUGAUGAUGUUGAACCCAUUUCUGAAUUUCGAUUUGUGCCCAGUGAUAAAUCAGCAUUGGAGGCGAUGUUCACAGCAAUGUGUGAG	0.25
